Experimental data pooled from the literature.
Several values in a cell are separate wells, animals, samples, runs or records.
CDK9 with cyclin T1: Cyclin-dependent kinase 9, with cyclin T1 (CDK9, Homo sapiens, UniProt P50750)
CDK9: Cyclin-dependent kinase 9 (CDK9, Homo sapiens, UniProt P50750)

Structure (SMILES)	target	assay	test system	conditions	how to read	measurement	result
CNC(=O)C[C@H](Cc1ccc(C#N)cc1)NC(=O)c1cc(-c2ccc(CN[C@H](C)c3ccc(C)cc3)o2)ccc1Cl	CDK9 with cyclin T1	enzyme activity, inhibitor	–	1 µM	–	activity vs control	99%
COc1ccc(C(=O)/C=C/c2ccccc2-c2c[nH]c3ccc(C#N)cc23)c(O)c1	CDK9 with cyclin T1	enzyme activity, inhibitor	–	20 µM	–	inhibition	9%
NC(=O)C[C@H]1CCc2sc3ncnc(O[C@H]4CC[C@H](N5CCOCC5)CC4)c3c21	CDK9 with cyclin T1	enzyme activity, inhibitor	–	10 µM	–	inhibition	46%
COc1ccc(NC(=O)Nc2ccc3c(c2)C(=O)N(C(C)CO)CC(C)C(CN(C)Cc2ccc4c(c2)OCO4)O3)cc1 (centres unmarked)	CDK9	binding, competition with immobilised ligand	–	10 µM	–	remaining binding	90%
COc1c(Cl)cccc1Nc1c(-c2ccncc2C#C[C@@]2(C)CCCN2C(=O)/C=C/CN(C)C)[nH]c2c1C(=O)NCC2	CDK9	binding, competition with immobilised ligand	–	3 µM	–	remaining binding	100%
Cc1cccc(O[C@H]2CCC[C@@H](C(C)CNCc3ccncc3)C2)c1 (relative stereo)	CDK9 with cyclin T1	enzyme activity, inhibitor	–	10 µM	–	inhibition	10%
C=CC(=O)N1CCc2ccc(-n3c(=O)ccc4cnc5ccc(-c6cnn(C)c6)cc5c43)cc21	CDK9	KINOMEscan	–	1 µM	baseline: DMSO control	remaining binding	100%
COc1cc(Nc2nccc(-c3cnn4nc(OC)ccc34)n2)cc(C(F)(F)F)c1	CDK9	binding, competition with immobilised ligand	–	1 µM	–	remaining binding	84%
Cc1ccc(-c2c(/C=C(\C#N)C(=O)NC(C)C)n(CCCO)c3ncnc(N)c23)cc1	CDK9	cell-free assay, competition with immobilised ligand	–	1 µM	–	remaining binding	100%
CCN1CCN(Cc2ccc(C(=O)Nc3ccc(C)c(NCc4cnc5[nH]ccc5c4OC)c3)cc2C(F)(F)F)CC1	CDK9	binding, competition with immobilised ligand	–	1 µM	–	remaining binding	100%
O=C=[N][Ru-4]123([n]4c5ccc(O)cc5c5c6c(c7cc(F)c[n+]1c7c54)C(=O)NC6=O)[S+]1CC[S+]2CC[S+]3CC1 (centres unmarked)	CDK9 with cyclin T1	enzyme activity	–	100 nM, human enzyme, with: 10 µM ATP	baseline: untreated	remaining activity	108%
CS(=O)(=O)Nc1cccc(-c2csc3cnc(Nc4ccc(N5CCN(CCCCCOc6cccc7c6C(=O)N(C6CCC(=O)NC6=O)C7=O)CC5)cc4)nc23)c1 (centres unmarked)	CDK9	probe labelling, inhibitor, KiNativ chemoproteomics	MOLT-4	1 µM	–	inhibition	-6.91%
Cc1nn(C)c(C)c1/C=C/C(=O)N1CCC[C@H](Cc2ccc(Nc3ccccn3)nn2)C1	CDK9	enzyme activity, inhibitor, ADP detection	–	1 µM	–	activity vs control	101%
O=C(Nc1cc(-c2ccnc3[nH]ccc23)c(Cl)cn1)[C@H]1CCC[C@@H](NC(=O)C(F)(F)F)C1	CDK9	binding, KINOMEscan	–	100 nM	–	inhibition	99.8%
CN1C[C@@H](c2c[nH]c3cc(Br)ccc23)NC[C@@H]1c1c[nH]c2cc(Br)ccc12	CDK9 with cyclin T1	enzyme activity, inhibitor	–	10 µM	–	remaining activity	93%
O=C(Cc1ccc(OCc2ccccc2)cc1)NC1(C(=O)O)CCN(C(=O)c2ccc(-c3cccc(Cl)c3)cc2)CC1	CDK9 with cyclin T1	enzyme activity, inhibitor	–	10 µM	–	activity vs control	108%
C=CC(=O)N1CCCC(n2c(=O)c3ncccc3n(Cc3ccc(Oc4ccccc4)cc3)c2=O)C1 (centres unmarked)	CDK9	cell-free assay, competition with immobilised ligand	–	1 µM	–	remaining binding	90%
Cc1cnc2nc1Nc1cccc(c1)COC/C=C/COCc1cc(ccc1OCCN1CCOCC1)N2	CDK9	binding	–	0.1 µM	–	remaining binding	100%
COCC12C(=O)NC3C4(C(OC)CC1O)C1CC5(O)C(OC)C(O)C(OC(C)=O)(C1C5OC(=O)c1ccccc1)C3(O)C(OC)C24 (centres unmarked)	Cyclin-dependent kinase 9, with cyclin T (CDK9, Homo sapiens, UniProt P50750)	kinase activity, inhibitor, ProQinase kinase profiling	–	25 µM	baseline: control	remaining activity	109% and 105%
CCn1cc(C(=O)O)c(=O)c2c(N)c(F)c(NC3CCCCC3)cc21	Cyclin-dependent kinase 9, with cyclin T2 (CDK9, Homo sapiens, UniProt P50750)	kinase activity	–	0.1 µM, with: ATP at Km	–	inhibition	24.3%
CN1CCN(Cc2ccc(NC(=O)c3cccc(C#Cc4cnc(N)c5ncccc45)c3)cc2C(F)(F)F)CC1	CDK9	cell-free assay, competition with immobilised ligand	–	50 nM	–	remaining binding	100%
C=CC(=O)N1Cc2nc(-c3cc(-c4cc(Cl)cnc4Cl)c(F)cc3F)n(-c3ccncn3)c2C1	CDK9 with cyclin T1	cell-free assay, inhibitor	–	1 µM	–	inhibition	0.9%
C[C@]1(O)CCCN(c2nc(Nc3ccc(S(=O)(=O)N[C@H]4CC[C@H](CN5CCN(c6ccc(C7CCC(=O)NC7=O)cc6F)CC5)CC4)cc3)ncc2C(F)(F)F)C1 (some centres unmarked)	CDK9	binding, competition with immobilised ligand	–	1 µM	–	remaining binding	96%
Cc1cc(C)nc(Nc2ccc([C@@H]3CCCN(C(=O)/C=C/c4csc(C)n4)C3)nc2)n1	CDK9	enzyme activity, inhibitor, ADP detection	–	1 µM	–	activity vs control	117%
C=CC(=O)Nc1cccc(-c2cnc3[nH]cc(C(=O)NC(C)(C)C)c3n2)c1	CDK9 with cyclin T1	kinase activity	–	0.1 µM	–	inhibition	2% and 1%
CN1CCN(Cc2ccc(-c3ccc(CO[C@H]4CCC[C@@H]4NC(=O)c4cc(-c5cnn(C)c5)cnc4N)cc3)cc2)CC1	Cyclin-dependent kinase 9, inactive (CDK9, Homo sapiens, UniProt P50750)	SelectScreen kinase profiling	–	0.1 µM	–	inhibition	1%

Excerpt of the above:
Structure (SMILES)	target	assay	test system	conditions	how to read	measurement	result
CNC(=O)C[C@H](Cc1ccc(C#N)cc1)NC(=O)c1cc(-c2ccc(CN[C@H](C)c3ccc(C)cc3)o2)ccc1Cl	CDK9 with cyclin T1	enzyme activity, inhibitor	–	1 µM	–	activity vs control	99%
COc1ccc(C(=O)/C=C/c2ccccc2-c2c[nH]c3ccc(C#N)cc23)c(O)c1	CDK9 with cyclin T1	enzyme activity, inhibitor	–	20 µM	–	inhibition	9%
NC(=O)C[C@H]1CCc2sc3ncnc(O[C@H]4CC[C@H](N5CCOCC5)CC4)c3c21	CDK9 with cyclin T1	enzyme activity, inhibitor	–	10 µM	–	inhibition	46%
COc1ccc(NC(=O)Nc2ccc3c(c2)C(=O)N(C(C)CO)CC(C)C(CN(C)Cc2ccc4c(c2)OCO4)O3)cc1 (centres unmarked)	CDK9	binding, competition with immobilised ligand	–	10 µM	–	remaining binding	90%
